Earlier results that unrelated publications cite.
Lines come from different studies, so protocols differ. “And” joins repeats or separate records; there may be more than shown. ± gives the spread as reported. In brackets after ≈: the same amount, converted by molar mass.
Sequence of UniProt P25100 (whole entry, looked up): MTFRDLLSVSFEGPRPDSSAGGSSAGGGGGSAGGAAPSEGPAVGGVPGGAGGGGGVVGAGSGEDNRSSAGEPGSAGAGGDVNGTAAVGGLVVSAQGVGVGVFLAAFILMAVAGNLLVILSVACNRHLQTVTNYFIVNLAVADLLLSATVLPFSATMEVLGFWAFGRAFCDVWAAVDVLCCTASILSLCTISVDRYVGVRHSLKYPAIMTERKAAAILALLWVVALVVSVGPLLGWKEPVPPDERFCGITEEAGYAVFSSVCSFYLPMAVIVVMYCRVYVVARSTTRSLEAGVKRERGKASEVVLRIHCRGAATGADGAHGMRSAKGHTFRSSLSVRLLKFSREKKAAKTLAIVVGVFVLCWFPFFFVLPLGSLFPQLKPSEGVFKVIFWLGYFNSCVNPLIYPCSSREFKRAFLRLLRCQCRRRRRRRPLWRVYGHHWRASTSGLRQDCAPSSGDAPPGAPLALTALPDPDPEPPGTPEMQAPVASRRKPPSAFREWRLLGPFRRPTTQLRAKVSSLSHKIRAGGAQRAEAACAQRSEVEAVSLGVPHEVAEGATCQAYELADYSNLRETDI
Sequence of UniProt P28335 (whole entry, looked up): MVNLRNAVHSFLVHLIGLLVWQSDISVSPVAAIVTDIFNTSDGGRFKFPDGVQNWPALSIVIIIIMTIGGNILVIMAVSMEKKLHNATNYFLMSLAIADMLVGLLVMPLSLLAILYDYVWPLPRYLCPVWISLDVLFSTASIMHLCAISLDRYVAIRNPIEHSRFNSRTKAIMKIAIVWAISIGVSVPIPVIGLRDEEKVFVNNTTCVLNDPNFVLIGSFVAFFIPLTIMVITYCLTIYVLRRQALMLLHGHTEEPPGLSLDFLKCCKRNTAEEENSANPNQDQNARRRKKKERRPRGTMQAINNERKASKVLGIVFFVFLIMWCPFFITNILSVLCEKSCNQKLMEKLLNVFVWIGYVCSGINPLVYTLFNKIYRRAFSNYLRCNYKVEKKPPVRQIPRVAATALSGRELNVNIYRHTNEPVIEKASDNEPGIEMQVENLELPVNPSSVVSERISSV

With `CC1CCC(C(C)C)C(OC(=O)Cn2c(-c3ccc(F)cc3)[n+](C)c3ccccc32)C1.[Cl-]` (stereo not drawn) the MIC was 32.7 µM (Mycobacterium tuberculosis; >99% growth suppression).
The IC50 of `C[C@H]1O[C@@H](O[C@H]2[C@@H](O)C[C@H](O[C@H]3[C@@H](O)C[C@H](O[C@H]4CC[C@@]5(C)[C@H](CC[C@@H]6[C@@H]5C[C@@H](O)[C@]5(C)[C@@H](C7=CC(=O)OC7)CC[C@]65O)C4)O[C@@H]3C)O[C@@H]2C)C[C@H](O)[C@@H]1O` is reported as 170 ± 20 nM (MDA-MB-435; cell viability; 72 h).
For `C=CCN(CC=C)CCc1c[nH]c2ccc(F)cc12`, the Ki was greater than 10000 nM (ADRA1D (Homo sapiens, UniProt P25100)).
The MIC of `Nc1nc(-c2ccccc2)nc2c1ncn2C1OC(COS(=O)(=O)NC(=O)c2ccccc2O)C(O)C1O` (stereo not drawn) is reported as 0.049 µM (≈ 0.0266 µg/mL) (Mycobacterium tuberculosis; H37Rv, iron-deficient GAS medium; pH 6.6).
For `O=C(O)CCCO`, food-maintained responding read “decreased” (baboon; 320 mg/kg, first 2 h; reference: vehicle).
For `CNC(C)C(=O)c1ccc(C)cc1` (stereo not drawn), the IC50 was 422 ± 26 nM (serotonin transporter, rat; serotonin uptake, inhibitor; brain synaptosomes).
`C=CCN(CC=C)CCc1c[nH]c2ccccc12` gave a Ki of 385 nM (HTR2C (Homo sapiens, UniProt P28335); binding; cloned human receptor; added: [3H]mesulergine).
`CO[C@H]1C[C@H](O[C@H]2CC[C@@]3(C)[C@@H](C2)C[C@@H]2O[C@]24[C@@H]3[C@H](O)C(=O)[C@]2(C)[C@@H](C3=CC(=O)OC3)CC[C@]42O)O[C@@H](C)[C@@H]1O` has an IC50 of 440 ± 80 nM (OVCAR-5; cell viability; 72 h).
With `C[C@]12CC[C@H](O)CC1=CC[C@@H]1[C@@H]2CC[C@]2(C)C(=O)CC[C@@H]12` the EC50 was 5 nM (MCF7 Tet-off 3β-HSD aromatase; cell proliferation, agonist; mean of cell lines).
`NC1CC1c1ccc(NC(=O)C(Cc2ccccc2)NC(=O)OCc2ccccc2)cc1` (stereo not drawn) has an IC50 of 10200 ± 1200 nM (MV4-11 (AML)).
`COc1ccc(OCc2n(CC(=O)OC3CC(C)CCC3C(C)C)c3ccccc3[n+]2C)cc1` (stereo not drawn) gave an MIC of 16 µM and 15.9 µM (Mycobacterium tuberculosis; >99% growth suppression).
For `CCCC(C(=O)c1ccc2c(c1)OCO2)N1CCCC1` (stereo not drawn), the IC50 was 26 ± 8 nM (norepinephrine transporter, rat; norepinephrine uptake, inhibitor; brain synaptosomes).
The IC50 of `NC(=O)[C@@H]1CC[C@@H]2CN1C(=O)N2OS(=O)(=O)O` is reported as greater than 50000 nM (PBP1a; enzyme activity; highest concentration 50 µM).
`C[C@]12CCC(=O)CC1=CC[C@@H]1[C@@H]2CC[C@]2(C)C(=O)CC[C@@H]12` gave a kcat of 3510 ± 60 s⁻¹ (ketosteroid isomerase Y55F; substrate; pH 7.0, 3.3 % methanol).
`Cc1ccccc1OCc1n(CC(=O)OC2CC(C)CCC2C(C)C)c2ccccc2[n+]1C` (stereo not drawn) gave an MIC of 10.4 µM (Mycobacterium tuberculosis; >99% growth suppression).
For `NC(=O)c1ncn([C@@H]2O[C@H](CO)[C@@H](O)[C@H]2O)n1`, the EC50 was 8900 nM (human parainfluenza virus 2; viral replication, MTT; Greer).
`C=C(C)[C@@H]1CCC(C)=C[C@H]1c1c(O)cc(CC2CN(C(C)=O)C2)cc1O` has an EC50 of 23 nM (hippocampal cultures; neuroprotection; added: ethanol).
With `O=c1c(I)ccc2n1C[C@@H]1CNC[C@H]2C1` the EC50 was 86 nM (α4β2 nAChR low-sensitivity form; agonist; Xenopus oocytes).
`CNC(C)C(=O)c1ccc2c(c1)OCO2` (stereo not drawn) has an IC50 of 1020 ± 59 nM (serotonin transporter, rat; serotonin uptake, inhibitor; brain synaptosomes).
For `CO[C@@H]1[C@H](O)[C@@H](COP(=O)(O)OP(=O)([O-])OP(=O)(O)OP(=O)(O)OC[C@H]2O[C@@H](n3cnc4c(=O)[nH]c(N)nc43)[C@H](O)[C@@H]2O)O[C@H]1n1c[n+](C)c2c(O)nc(N)nc21`, “relative translation efficiency” read 2.56 ± 0.18 (rabbit reticulocyte lysate; mRNA capped with compound; reference: m7GpppG-capped mRNA).
`CCC(CC)COC(=O)[C@H](C)N[P@](=O)(OC[C@H]1O[C@@](C#N)(c2ccc3c(N)ncnn23)[C@H](O)[C@@H]1O)Oc1ccccc1` gave an EC50 of 5.97 ng/mL (SARS-CoV-2; viral replication; human airway epithelial cells).

Repeated from above:
The IC50 of `NC(=O)[C@@H]1CC[C@@H]2CN1C(=O)N2OS(=O)(=O)O` is reported as greater than 50000 nM (PBP1a; enzyme activity; highest concentration 50 µM).
